Measured values of several laboratories.
Lines come from different studies, so protocols differ. Several values in a cell are separate wells, animals, samples, runs or records. Numbers after ± are the reported error.
TDP1: Tyrosyl-DNA phosphodiesterase 1 (TDP1, Homo sapiens, UniProt Q9NUW8)
Chain of UniProt Q9NUW8 (whole entry, looked up): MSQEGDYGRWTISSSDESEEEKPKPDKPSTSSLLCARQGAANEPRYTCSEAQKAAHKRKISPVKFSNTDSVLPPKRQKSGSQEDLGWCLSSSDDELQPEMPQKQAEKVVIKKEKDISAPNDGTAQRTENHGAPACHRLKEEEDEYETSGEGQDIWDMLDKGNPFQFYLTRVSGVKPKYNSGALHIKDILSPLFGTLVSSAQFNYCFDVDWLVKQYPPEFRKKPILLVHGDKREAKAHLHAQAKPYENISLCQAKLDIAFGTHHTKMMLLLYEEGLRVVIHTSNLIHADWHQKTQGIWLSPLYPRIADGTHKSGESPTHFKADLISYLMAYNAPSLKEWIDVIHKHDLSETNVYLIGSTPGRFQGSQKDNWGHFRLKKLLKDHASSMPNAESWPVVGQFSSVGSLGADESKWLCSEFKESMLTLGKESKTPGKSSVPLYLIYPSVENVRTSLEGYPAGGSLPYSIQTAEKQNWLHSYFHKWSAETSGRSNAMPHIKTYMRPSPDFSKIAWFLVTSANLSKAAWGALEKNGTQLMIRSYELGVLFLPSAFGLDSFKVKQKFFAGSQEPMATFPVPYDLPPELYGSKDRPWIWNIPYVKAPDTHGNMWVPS
Gria1: Glutamate receptor 1 (Gria1, Rattus norvegicus, UniProt P19490)
Chain of UniProt P19490 (whole entry, looked up): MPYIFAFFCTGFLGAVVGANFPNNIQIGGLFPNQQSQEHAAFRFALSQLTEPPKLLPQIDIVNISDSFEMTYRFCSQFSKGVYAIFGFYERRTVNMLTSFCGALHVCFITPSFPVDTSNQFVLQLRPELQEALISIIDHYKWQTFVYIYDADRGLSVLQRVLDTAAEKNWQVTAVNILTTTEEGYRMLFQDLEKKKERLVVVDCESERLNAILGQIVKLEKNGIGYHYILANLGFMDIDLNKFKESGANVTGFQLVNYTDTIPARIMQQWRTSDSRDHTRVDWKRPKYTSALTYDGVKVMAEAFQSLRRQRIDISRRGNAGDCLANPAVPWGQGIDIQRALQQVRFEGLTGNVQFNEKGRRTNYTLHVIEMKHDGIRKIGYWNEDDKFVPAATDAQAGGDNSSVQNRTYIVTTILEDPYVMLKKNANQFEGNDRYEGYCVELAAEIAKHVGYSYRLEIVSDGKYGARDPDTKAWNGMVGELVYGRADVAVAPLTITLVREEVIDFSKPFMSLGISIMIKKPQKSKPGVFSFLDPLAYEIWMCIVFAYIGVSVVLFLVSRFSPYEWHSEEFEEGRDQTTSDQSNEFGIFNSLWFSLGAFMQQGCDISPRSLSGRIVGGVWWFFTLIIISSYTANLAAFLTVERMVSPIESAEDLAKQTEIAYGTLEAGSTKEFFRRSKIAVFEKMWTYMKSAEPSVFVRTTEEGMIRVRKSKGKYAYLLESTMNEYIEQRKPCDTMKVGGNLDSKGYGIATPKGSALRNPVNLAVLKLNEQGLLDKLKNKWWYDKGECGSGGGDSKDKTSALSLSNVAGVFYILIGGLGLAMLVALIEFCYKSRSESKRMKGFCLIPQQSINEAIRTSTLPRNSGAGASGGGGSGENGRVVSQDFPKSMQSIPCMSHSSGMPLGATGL
BRD4 BD1: Bromodomain-containing protein 4, BD1 (BRD4, Homo sapiens, UniProt O60885)
glpG: Rhomboid protease GlpG (glpG, Escherichia coli, UniProt P09391)
Chain of UniProt P09391 (whole entry, looked up): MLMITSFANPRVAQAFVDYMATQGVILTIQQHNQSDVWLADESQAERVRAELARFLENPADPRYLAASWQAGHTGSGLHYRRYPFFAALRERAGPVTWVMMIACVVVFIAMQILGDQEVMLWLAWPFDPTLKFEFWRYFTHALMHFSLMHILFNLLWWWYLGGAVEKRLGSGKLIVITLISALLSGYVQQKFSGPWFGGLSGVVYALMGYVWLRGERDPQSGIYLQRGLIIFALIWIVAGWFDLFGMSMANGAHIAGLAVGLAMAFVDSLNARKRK
CASP6: Caspase-6 (CASP6, Homo sapiens, UniProt P55212)
Chain of UniProt P55212 (whole entry, looked up): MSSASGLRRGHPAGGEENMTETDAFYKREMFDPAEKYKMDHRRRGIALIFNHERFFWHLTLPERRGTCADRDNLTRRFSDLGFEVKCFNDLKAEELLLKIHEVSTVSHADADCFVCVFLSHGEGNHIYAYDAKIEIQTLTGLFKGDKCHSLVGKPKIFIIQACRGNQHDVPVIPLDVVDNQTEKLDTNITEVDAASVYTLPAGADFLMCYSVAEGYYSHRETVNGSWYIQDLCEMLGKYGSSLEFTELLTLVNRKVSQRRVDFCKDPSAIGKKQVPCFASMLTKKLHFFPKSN
T1: RNase P RNA (Methanobrevibacter smithii); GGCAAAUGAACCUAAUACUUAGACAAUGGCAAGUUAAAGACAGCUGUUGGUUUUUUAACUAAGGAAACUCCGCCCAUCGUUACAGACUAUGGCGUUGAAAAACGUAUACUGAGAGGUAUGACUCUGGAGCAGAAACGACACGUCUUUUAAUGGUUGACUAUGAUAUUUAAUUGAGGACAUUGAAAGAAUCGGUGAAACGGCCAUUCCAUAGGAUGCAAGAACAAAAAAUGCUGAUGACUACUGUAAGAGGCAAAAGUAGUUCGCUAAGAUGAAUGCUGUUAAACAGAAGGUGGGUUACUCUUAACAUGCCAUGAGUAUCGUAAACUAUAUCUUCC
Chain of UniProt P45983 (whole entry, looked up): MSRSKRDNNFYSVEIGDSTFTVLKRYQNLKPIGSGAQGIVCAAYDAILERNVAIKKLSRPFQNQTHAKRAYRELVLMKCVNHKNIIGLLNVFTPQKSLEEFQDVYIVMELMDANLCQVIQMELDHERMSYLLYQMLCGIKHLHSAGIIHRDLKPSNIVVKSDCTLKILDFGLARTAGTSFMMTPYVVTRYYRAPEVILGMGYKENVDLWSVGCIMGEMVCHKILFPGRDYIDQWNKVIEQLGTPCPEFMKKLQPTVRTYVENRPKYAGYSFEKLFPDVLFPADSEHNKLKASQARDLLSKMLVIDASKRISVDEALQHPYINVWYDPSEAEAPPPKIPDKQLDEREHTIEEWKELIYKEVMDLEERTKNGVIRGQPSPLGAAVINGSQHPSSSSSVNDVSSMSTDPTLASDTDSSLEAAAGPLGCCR
Chain of UniProt P20309 (whole entry, looked up): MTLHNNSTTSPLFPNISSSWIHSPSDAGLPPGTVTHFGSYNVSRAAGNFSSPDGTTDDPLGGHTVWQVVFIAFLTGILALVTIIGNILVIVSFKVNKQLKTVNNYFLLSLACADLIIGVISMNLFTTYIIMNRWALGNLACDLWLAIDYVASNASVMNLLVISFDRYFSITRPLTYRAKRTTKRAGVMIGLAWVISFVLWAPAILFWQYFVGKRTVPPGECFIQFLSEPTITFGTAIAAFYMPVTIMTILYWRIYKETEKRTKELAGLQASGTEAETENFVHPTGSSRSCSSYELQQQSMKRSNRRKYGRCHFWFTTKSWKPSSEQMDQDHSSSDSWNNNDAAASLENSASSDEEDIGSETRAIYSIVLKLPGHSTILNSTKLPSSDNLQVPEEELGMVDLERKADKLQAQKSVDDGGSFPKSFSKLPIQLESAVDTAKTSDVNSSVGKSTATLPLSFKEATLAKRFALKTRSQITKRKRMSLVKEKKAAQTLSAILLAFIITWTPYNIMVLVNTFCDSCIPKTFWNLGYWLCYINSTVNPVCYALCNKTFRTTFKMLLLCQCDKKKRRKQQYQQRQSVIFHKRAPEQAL
Chain of UniProt O00329 (whole entry, looked up): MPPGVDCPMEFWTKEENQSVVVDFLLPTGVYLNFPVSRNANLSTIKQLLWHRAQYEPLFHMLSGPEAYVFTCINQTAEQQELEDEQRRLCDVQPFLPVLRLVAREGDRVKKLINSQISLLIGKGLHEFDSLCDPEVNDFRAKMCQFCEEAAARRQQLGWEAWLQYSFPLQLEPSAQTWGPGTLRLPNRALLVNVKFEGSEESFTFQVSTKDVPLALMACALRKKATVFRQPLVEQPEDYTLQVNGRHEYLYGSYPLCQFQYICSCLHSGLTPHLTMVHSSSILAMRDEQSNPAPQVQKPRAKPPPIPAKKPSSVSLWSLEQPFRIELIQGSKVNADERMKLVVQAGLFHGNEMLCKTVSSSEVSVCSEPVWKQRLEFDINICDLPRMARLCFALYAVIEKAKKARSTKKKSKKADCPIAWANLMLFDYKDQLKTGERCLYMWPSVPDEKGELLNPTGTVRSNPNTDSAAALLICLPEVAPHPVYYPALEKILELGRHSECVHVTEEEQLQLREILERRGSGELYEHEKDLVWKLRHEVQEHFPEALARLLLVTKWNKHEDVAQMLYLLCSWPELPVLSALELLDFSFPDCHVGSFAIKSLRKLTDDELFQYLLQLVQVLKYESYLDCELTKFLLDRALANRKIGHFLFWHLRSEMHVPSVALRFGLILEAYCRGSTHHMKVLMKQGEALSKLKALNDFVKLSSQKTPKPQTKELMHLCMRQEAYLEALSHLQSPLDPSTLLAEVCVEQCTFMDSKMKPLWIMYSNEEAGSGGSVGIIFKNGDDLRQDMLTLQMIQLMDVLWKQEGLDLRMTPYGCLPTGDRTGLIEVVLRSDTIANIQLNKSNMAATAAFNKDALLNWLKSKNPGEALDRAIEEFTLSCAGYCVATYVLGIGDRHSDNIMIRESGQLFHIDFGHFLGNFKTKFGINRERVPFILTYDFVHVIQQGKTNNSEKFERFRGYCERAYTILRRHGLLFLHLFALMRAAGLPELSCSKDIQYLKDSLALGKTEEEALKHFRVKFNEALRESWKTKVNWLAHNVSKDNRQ
Chain of UniProt P52597 (whole entry, looked up): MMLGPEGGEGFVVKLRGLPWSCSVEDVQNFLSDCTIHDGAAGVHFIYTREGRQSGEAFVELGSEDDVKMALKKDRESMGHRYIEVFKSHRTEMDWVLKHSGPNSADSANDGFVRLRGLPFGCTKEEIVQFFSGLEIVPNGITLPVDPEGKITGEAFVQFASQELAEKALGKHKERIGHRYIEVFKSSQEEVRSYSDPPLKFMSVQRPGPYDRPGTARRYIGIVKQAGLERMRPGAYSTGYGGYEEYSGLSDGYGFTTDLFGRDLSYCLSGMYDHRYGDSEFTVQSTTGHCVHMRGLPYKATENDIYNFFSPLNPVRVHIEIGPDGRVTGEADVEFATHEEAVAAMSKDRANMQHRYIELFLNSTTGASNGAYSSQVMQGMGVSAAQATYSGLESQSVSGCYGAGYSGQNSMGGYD
Chain of UniProt O60664 (whole entry, looked up): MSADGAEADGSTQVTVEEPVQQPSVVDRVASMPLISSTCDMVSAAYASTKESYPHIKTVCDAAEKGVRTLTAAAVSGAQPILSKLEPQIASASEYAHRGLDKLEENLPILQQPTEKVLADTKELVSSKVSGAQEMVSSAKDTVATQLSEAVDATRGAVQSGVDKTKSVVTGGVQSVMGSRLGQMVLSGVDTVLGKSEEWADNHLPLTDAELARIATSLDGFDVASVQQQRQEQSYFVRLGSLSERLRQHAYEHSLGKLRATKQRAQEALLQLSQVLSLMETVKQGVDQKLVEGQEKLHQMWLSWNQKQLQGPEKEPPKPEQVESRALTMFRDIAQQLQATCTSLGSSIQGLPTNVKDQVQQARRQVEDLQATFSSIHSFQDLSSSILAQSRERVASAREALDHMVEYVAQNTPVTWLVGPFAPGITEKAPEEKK

Under “isoTOP-ABPP competition ratio”, `CCCCCC(O)/C=C/C=O` (stereo not drawn) is recorded as 1.4 (Heterogeneous nuclear ribonucleoprotein F (Homo sapiens, UniProt P52597); competitive isoTOP-ABPP, item: HNRPF cysteine peptide; Ramos soluble proteome; 100 µM, with: iodoacetamide probe; reference: DMSO over compound-treated, higher = stronger cysteine blockade).
`Cc1nn(C)c(N2CCOCC2)c1C=NOCc1ccc2nc(-c3ccccc3)c(Nc3ccc(C(=O)O)cc3)n2c1` (mixture of isomers) gave an inhibition of -10.1% (TDP1; enzyme activity, inhibitor; 100 µM, unpurified compound).
Under “isoTOP-ABPP competition ratio”, `CCCCCCCCCCCCC/C=C/C=O` is recorded as 1.3 (Perilipin-3 (PLIN3, Homo sapiens, UniProt O60664); competitive isoTOP-ABPP; Ramos soluble proteome; 100 µM, 60 min, with: iodoacetamide probe; reference: DMSO over compound-treated, higher = stronger cysteine blockade).
The specific binding of `O=C1c2sc(-c3ccc(N4CCC(CO)CC4)nc3F)nc2CCN1c1cccnc1` is reported as -0.025 nM (TAR DNA-binding protein 43, aggregated (TARDBP, Homo sapiens, UniProt Q13148); radioligand binding; control brain sarkosyl-insoluble extract; 52.06 nM).
`O=C(O)c1ccc(Nc2c(-c3ccc(CON=Cc4cc([N+](=O)[O-])cc5c4OCOC5)cc3)nc3cc(-c4ccccc4)ccn23)cc1` (mixture of isomers) gave an inhibition of 69% (TDP1; enzyme activity, inhibitor; 100 µM, unpurified compound).
`COC(=O)Cc1cc2c(cc1C(=O)c1ccccc1Br)OCO2`: “desensitization time constant” 2.3 ± 0.1 ms (Gria1; glutamate-evoked current, whole-cell patch clamp; HEK-293T; concentration not given, weighted tau, 500 ms pulse, with: glutamate).
`O=C(O)c1ccc(Nc2c(-c3ccc(CON=Cc4ccccc4OCc4cn5cccnc5n4)cc3)nc3cc(-c4ccccc4)ccn23)cc1` (mixture of isomers) has an inhibition of 99.2% (TDP1; enzyme activity, inhibitor; 100 µM, unpurified compound).
The ΔTm of `CC(C)C[C@@H]1NC(=O)[C@H](Cc2ccccc2)NC(=O)[C@H](CO)NC(=O)[C@H](Cc2ccccc2)NC(=O)CSC[C@@H](C(=O)N(C)[C@@H](Cc2ccccc2)C(N)=O)NC(=O)[C@H](Cc2c[nH]c3ccccc23)NC(=O)[C@H](Cc2c[nH]cn2)NC(=O)[C@H](Cc2ccc(O)cc2)NC1=O` is reported as 0.66 °C (BRD4 BD1; thermal stability, DSF; 200 µM).
`Fc1ccc(Nc2nc(NC3CCCCC3)c3cc(C(F)(F)F)ccc3n2)cc1F` has a maximal inhibition of -2% (ADRB2 (Homo sapiens, UniProt P07550, Q170L); β-arrestin2 recruitment, antagonist, BRET; mutant Q170L; reference: isoprenaline maximal response).
`O=C(O)c1ccc(Nc2c(-c3ccccc3)nc3ccc(CON=Cc4cncn4Cc4ccccc4)cn23)cc1` has an inhibition of 3.1% (TDP1; enzyme activity, inhibitor; 100 µM, unpurified compound).
For `O=C(O)Cc1cc2c(cc1C(=O)c1cccc(Cl)c1)OCO2`, “desensitization time constant” read 0.8 ± 0.1 ms (Gria1; glutamate-evoked current, whole-cell patch clamp; HEK-293T; concentration not given, weighted tau, 500 ms pulse, with: glutamate).
For `COc1cc([N+](=O)[O-])ccc1C=NOCc1ccc2nc(-c3ccccc3)c(Nc3ccc(C(=O)O)cc3)n2c1` (mixture of isomers), the inhibition was 64.4% (TDP1; enzyme activity, inhibitor; 100 µM, unpurified compound).
Under “deactivation time constant”, `O=C(O)Cc1cc2c(cc1C(=O)c1ccccc1Cl)OCO2` is recorded as 8.3 ± 0.3 ms (Gria1; glutamate-evoked current, whole-cell patch clamp; HEK-293T; concentration not given, weighted tau, 1 ms pulse, with: glutamate).
Under “normalized kinase activity”, `C#CCOC(=O)[C@@]1(C)C=C(C(=O)OC(C)(C)C)C(=O)CC1` is recorded as 0.846 and 1.08 and 1.1 (MAPK8 (Homo sapiens, UniProt P45983); enzyme activity, D-SENSOR; 0.5487 µM, single replicate).
`Cc1ccc(S(=O)(=O)N2CC(NC(=O)c3ccccc3F)C2=O)cc1` (stereo not drawn): IC50 “inactive” (glpG; enzyme activity, inhibitor, gel-based chimeric protein substrate).
`CC(=O)c1cnc(N)nc1N1CC[C@H]1c1nn2ccc(Cl)c2c(=O)n1-c1ccccc1` — result for “inhibition of probe binding”: -7.7% (PIK3CD (Homo sapiens, UniProt O00329); kinase occupancy, inhibitor, KiNativ ATP probe profiling; intact PBMC; 0.001 µM, 1 h).
`CCCCCCOc1ccc(C(=O)OCCN2CC=CCC2)cc1` has a basal binding of 0.95 ± 0.03 fold (CHRM3 (Homo sapiens, UniProt P20309); membranes; 1 µM, 15 h, no carbachol; reference: control).
With `O=C1c2sc(-c3ccc(N4CCC(F)C4)nc3F)nc2CCN1c1cccnc1` (stereo not drawn) the inhibition was -2% (EDNRB (Homo sapiens, UniProt P24530); ligand displacement, radioligand; 1 µM).
`O=C(O)c1ccc(Nc2c(-c3ccc(CON=Cc4ccc(I)c(O)c4)cc3)nc3cc(-c4ccccc4)ccn23)cc1` has an inhibition of 93.4% (TDP1; enzyme activity, inhibitor; 100 µM).
`COC(=O)Cc1cc2c(cc1C(=O)c1ccccc1)OCO2` — result for “deactivation time constant”: 2.3 ± 0.1 ms (Gria1; glutamate-evoked current, whole-cell patch clamp; HEK-293T; concentration not given, weighted tau, 1 ms pulse, with: glutamate).
`C=CC(=O)N1CC2(CCN(c3nc(OC4CCN(CCCOC)CC4)nc4c(OCC(F)(F)F)c(-c5c(C)ccc6[nH]ncc56)c(C5CC5)cc34)CC2)C1` — result for “association rate constant”: 11800 ± 630 M⁻¹ s⁻¹ (GTPase KRas, GDP-bound (KRAS, Homo sapiens, UniProt P01116, G12V); binding, surface plasmon resonance).
Under IC50, `Cc1ccc(S(=O)(=O)NC(CCO)c2ccccc2)cc1` (stereo not drawn) is recorded as “inactive” (glpG; enzyme activity, inhibitor, gel-based chimeric protein substrate).
The Ki of `C=CCN1[C@@H](c2ccc(C)cc2)C[C@@](O)(c2ccccc2OC)C[C@H]1c1ccc(C)cc1` is reported as 321 µM (T1, RNase P RNA (Methanobrevibacter smithii); progress curve cleavage assay; with: pre-tRNA).
With `CC(=O)N1C[C@H](O)C[C@H]1C(=O)N[C@H](C(=O)N[C@@H](CO)C(=O)N[C@@H](CC(=O)O)C(=O)COC(=O)c1c(C)cccc1C)C(C)C` the kinact/KI was 600 M⁻¹ s⁻¹ (CASP6; enzyme activity, inhibitor).
For `Cc1sc2c(c1C)C(c1ccc(Cl)cc1)=N[C@@H](CC(=O)NCCN(C)CCCCNC(=O)CCCCOc1cccc3c1C(=O)N([C@H]1CCC(=O)NC1=O)C3=O)c1nnc(C)n1-2`, “onset of degradation” read 8 h (BRD4 (Homo sapiens, UniProt O60885); degrader, Western blot; MV4-11; 50 nM).
For `COC(=O)[C@@]1(C)C=C(C(=O)Nc2cccc(C(=O)Nc3ccc(Nc4nccc(-c5cccnc5)n4)c(C)c3)c2)C(=O)CC1`, “normalized fluorescence polarization” read 0.901 (Mitogen-activated protein kinase 8, docking groove (MAPK8, Homo sapiens, UniProt P45983); peptide binding, inhibitor, fluorescence polarization; 1.562 µM, with: JIP1 peptide probe).
With `O=C(O)c1ccc(Nc2c(-c3ccccc3)nc3ccc(CON=Cc4ccc(CN5CCCCC5)cc4)cn23)cc1` (mixture of isomers) the inhibition was 8.7% (TDP1; enzyme activity, inhibitor; 100 µM, unpurified compound).
`CC(=O)N1[C@H](C(=O)N[C@@H](CC(C)C)C(=O)N[C@@H](C)C(=O)N[C@@H](CC(=O)O)C(=O)COC(=O)c2c(C)cccc2C)C[C@@H]2CCCC[C@@H]21` gave a kinact/KI of 500 M⁻¹ s⁻¹ (CASP6; enzyme activity, inhibitor).
`O=C(O)c1ccc(Nc2c(-c3ccc(CON=Cc4ccc(N5CCC(CO)CC5)cc4)cc3)nc3cc(-c4ccccc4)ccn23)cc1` (mixture of isomers) has an inhibition of 98.7% (TDP1; enzyme activity, inhibitor; 100 µM, unpurified compound).
`CC(C)C[C@@H]1NC(=O)[C@H](Cc2ccccc2)NC(=O)CSC[C@@H](C(=O)NCC(N)=O)NC(=O)[C@H](Cc2ccc(O)cc2)NC(=O)[C@H](C(C)C)NC(=O)[C@H](Cc2ccccc2)NC(=O)[C@H](Cc2ccc(O)cc2)NC(=O)[C@H](Cc2ccccc2)NC(=O)[C@H](CC(=O)O)NC(=O)[C@H](CC(N)=O)NC(=O)[C@H](CC(N)=O)NC(=O)[C@H](Cc2ccc(O)cc2)NC(=O)[C@H](C(C)C)NC(=O)[C@H](Cc2ccccc2)NC1=O` gave a ΔTm of 0.73 °C (BRD4 BD1; thermal stability, DSF; 100 µM).

Some of these lines once more:
For `COC(=O)[C@@]1(C)C=C(C(=O)Nc2cccc(C(=O)Nc3ccc(Nc4nccc(-c5cccnc5)n4)c(C)c3)c2)C(=O)CC1`, “normalized fluorescence polarization” read 0.901 (Mitogen-activated protein kinase 8, docking groove (MAPK8, Homo sapiens, UniProt P45983); peptide binding, inhibitor, fluorescence polarization; 1.562 µM, with: JIP1 peptide probe).
With `CC(=O)N1C[C@H](O)C[C@H]1C(=O)N[C@H](C(=O)N[C@@H](CO)C(=O)N[C@@H](CC(=O)O)C(=O)COC(=O)c1c(C)cccc1C)C(C)C` the kinact/KI was 600 M⁻¹ s⁻¹ (CASP6; enzyme activity, inhibitor).
The ΔTm of `CC(C)C[C@@H]1NC(=O)[C@H](Cc2ccccc2)NC(=O)[C@H](CO)NC(=O)[C@H](Cc2ccccc2)NC(=O)CSC[C@@H](C(=O)N(C)[C@@H](Cc2ccccc2)C(N)=O)NC(=O)[C@H](Cc2c[nH]c3ccccc23)NC(=O)[C@H](Cc2c[nH]cn2)NC(=O)[C@H](Cc2ccc(O)cc2)NC1=O` is reported as 0.66 °C (BRD4 BD1; thermal stability, DSF; 200 µM).
